Results collected from several papers.
Lines come from different studies, so protocols differ. “And” joins repeats or separate records; there may be more than shown. Numbers after ± are the reported error.
UniProt Q9NRM7, sequence (whole entry, looked up): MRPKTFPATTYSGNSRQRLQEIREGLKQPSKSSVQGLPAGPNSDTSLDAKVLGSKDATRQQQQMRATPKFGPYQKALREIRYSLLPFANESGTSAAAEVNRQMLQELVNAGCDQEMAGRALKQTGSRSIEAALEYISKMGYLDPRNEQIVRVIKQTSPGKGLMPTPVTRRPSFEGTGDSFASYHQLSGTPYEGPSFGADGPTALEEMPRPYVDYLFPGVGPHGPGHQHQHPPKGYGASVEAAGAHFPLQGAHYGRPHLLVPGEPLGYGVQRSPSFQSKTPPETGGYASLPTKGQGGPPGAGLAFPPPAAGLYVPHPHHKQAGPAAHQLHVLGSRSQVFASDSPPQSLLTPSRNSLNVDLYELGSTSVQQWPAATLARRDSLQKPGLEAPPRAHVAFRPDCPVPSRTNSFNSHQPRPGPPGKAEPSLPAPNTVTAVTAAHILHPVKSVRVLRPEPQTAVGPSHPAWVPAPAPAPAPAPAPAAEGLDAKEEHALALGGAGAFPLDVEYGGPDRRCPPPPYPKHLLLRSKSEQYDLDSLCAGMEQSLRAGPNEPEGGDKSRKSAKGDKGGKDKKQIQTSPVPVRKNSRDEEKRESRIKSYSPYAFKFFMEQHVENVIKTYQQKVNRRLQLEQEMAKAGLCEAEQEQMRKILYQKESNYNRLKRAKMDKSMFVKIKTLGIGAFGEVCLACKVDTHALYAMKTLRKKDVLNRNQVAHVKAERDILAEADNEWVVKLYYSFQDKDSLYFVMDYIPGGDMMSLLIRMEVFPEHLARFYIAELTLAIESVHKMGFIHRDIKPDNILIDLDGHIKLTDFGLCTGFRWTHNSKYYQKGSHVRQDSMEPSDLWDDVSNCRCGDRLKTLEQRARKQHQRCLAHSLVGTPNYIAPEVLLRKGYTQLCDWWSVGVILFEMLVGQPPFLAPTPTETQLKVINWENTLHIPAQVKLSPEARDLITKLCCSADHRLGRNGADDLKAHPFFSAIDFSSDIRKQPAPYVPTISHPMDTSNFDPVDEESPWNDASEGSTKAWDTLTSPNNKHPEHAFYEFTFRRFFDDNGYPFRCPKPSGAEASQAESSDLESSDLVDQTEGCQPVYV
UniProt P10632, sequence (whole entry, looked up): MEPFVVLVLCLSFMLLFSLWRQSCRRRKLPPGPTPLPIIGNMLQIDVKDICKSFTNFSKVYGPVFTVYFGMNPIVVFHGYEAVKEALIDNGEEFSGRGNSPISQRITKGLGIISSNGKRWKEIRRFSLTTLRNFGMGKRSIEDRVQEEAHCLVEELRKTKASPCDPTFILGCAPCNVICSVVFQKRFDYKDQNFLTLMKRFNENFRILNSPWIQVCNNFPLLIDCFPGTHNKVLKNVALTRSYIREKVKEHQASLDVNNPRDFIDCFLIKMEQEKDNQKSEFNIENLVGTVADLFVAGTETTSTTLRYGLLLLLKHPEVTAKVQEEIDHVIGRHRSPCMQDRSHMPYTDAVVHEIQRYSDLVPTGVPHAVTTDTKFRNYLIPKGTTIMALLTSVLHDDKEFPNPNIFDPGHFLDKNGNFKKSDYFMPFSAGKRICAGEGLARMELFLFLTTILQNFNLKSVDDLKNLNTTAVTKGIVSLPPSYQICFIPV
UniProt Q13557, sequence (whole entry, looked up): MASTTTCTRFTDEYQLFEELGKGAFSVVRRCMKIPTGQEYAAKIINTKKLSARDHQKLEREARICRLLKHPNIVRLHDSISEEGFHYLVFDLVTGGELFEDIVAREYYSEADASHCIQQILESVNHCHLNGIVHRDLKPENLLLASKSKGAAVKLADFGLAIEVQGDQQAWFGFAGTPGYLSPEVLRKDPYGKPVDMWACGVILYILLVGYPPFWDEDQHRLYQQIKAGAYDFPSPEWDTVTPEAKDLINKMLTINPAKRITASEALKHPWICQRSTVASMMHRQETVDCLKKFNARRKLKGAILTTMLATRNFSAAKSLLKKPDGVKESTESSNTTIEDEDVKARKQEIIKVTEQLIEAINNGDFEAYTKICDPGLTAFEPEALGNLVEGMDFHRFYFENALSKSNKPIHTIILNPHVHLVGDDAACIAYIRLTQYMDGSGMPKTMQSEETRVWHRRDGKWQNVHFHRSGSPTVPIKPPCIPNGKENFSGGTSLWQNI
UniProt Q9UBE8, sequence (whole entry, looked up): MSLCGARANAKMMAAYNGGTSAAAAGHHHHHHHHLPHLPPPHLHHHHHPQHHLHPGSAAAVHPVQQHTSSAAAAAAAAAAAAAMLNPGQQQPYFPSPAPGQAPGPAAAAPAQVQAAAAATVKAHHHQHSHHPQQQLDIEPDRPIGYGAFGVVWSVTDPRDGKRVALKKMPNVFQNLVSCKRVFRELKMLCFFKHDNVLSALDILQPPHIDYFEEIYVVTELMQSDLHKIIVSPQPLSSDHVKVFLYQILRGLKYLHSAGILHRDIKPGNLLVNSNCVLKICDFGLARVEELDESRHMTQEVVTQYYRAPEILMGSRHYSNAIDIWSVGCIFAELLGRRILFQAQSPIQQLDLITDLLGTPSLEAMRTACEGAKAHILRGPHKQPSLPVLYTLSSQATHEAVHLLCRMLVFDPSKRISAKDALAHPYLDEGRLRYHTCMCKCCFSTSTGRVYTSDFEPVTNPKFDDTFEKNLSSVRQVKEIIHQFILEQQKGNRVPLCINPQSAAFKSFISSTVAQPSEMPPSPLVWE

SMILES	tested on	assay	test system	conditions	how to read	endpoint	value
Cc1cc(-c2ccc3ccccc3c2)nnc1NCCN1CCN(C)CC1	Cytochrome P450 2C8 (CYP2C8, Homo sapiens, UniProt P10632)	substrate	recombinant enzyme	100 nM, 1 h	–	remaining compound	75%
N=C(N)NCCC[C@H](NC(=O)[C@H](CCCNC(=N)N)NC(=O)[C@H](CCCNC(=N)N)NC(=O)[C@H](CCC(N)=O)NC(=O)[C@H](CCCNC(=N)N)NC(=O)[C@H](CCCNC(=N)N)NC(=O)[C@H](CCCCN)NC(=O)[C@H](CCCCN)NC(=O)[C@H](CCCNC(=N)N)NC(=O)CNC(=O)[C@H](Cc1ccc(O)cc1)NC(=O)[C@H](Cc1ccccc1)NC(=O)[C@H](Cc1ccccc1)NC(=O)[C@H](Cc1ccccc1)NC(=O)Cc1ccc2ccccc2c1)C(=O)O	RAW264.7	flow cytometry	–	FITC-labelled compound	baseline: control	cellular internalization	decreased
CNC(=O)C[C@H](Cc1ccccc1)NC(=O)[C@@H](Cc1ccc(Cl)cc1Cl)NC(=O)[C@H](N)Cc1ccccc1C#N	Huh-7-ACE2	CellTiter-Glo	–	0.0977 µM, 48 h, unit not given	baseline: DMSO	viability	1.07 and 1 and 0.961
COc1ccc(-n2cc(C(=O)N3C[C@]4(OC(=O)c5ccccc5NC(C)=O)CC[C@H](OC)[C@@]56[C@@H]4C[C@@H]([C@@H]35)[C@@]3(O)C[C@H](OC)[C@H]4C[C@@H]6[C@]3(O)[C@H]4OC)nn2)cc1	–	–	rat Sprague-Dawley, plasma	intravenous, 2 mg/kg	–	AUC(0-inf)	59.1 ng·h/mL
C[C@@H](c1ccc2nccn2c1)n1nnc2ncc(-c3cn[nH]c3)nc21	human CYP3A4/5	time-dependent inhibitor	human liver microsomes	50 µM	–	inhibition	29%
CN(C)[C@H]1C[C@@]23CC[C@@]4(O2)C(=CC[C@]2(C)[C@@H](c5ccc6ccncc6c5)CC[C@H]24)C=C3[C@@H](O)[C@@H]1O	Serine/threonine-protein kinase SMG1 (SMG1, Homo sapiens, UniProt Q96Q15)	ATP probe labelling, inhibitor, KiNativ profiling	–	1 µM	–	inhibition	5.6%
CC(C)[C@H]1NC(=O)C[C@H]2/C=C/CCSSC[C@@H](NC1=O)C(=O)N[C@H](Cc1cccc3ccccc13)C(=O)NCC(=O)O2	Serine/threonine-protein kinase LATS2 (LATS2, Homo sapiens, UniProt Q9NRM7)	enzyme activity, inhibitor	–	10 µM	–	inhibition	-0.443%
O=C(NS(=O)(=O)c1cccs1)c1cc2ccccc2n1Cc1ccc(Br)c2ccccc12	–	–	KM mouse, chronic hyperuricaemia model	dose not given, day 12	–	body weight	25.8 g
CNC(=O)C[C@H](Cc1ccncc1)NC(=O)[C@@H](Cc1cccc(Br)c1)NC(=O)[C@@H](N)Cc1cccc(F)c1	Huh-7-ACE2	CellTiter-Glo	–	0.000763 µM, 48 h, unit not given	baseline: DMSO	viability	1.02 and 1.06
O=C1NC2(CC2)COc2ncc(F)cc2[C@H]2COCCN2c2ccn3ncc1c3n2	–	–	Sprague-Dawley rat, male, heart	oral, 10 mg/kg/day, 4 weeks, end of treatment	–	organ-to-brain weight ratio	84.5 ± 12.7%
CNC(=O)CC1CN(C(=O)c2ccc(C(F)(F)F)cn2)CCN1C(=O)c1cccnn1 (stereo not shown)	Huh-7-ACE2	CellTiter-Glo	–	0.00305 µM, 48 h, unit not given	baseline: DMSO	viability	0.955 and 1.03 and 1.05
CC(C)(C)C(=O)OCOP(=O)(OCOC(=O)C(C)(C)C)C1CCCN(O)C1=O (stereo not shown)	NCI-H23	–	–	–	–	log TGI	-5.47 log M
Cc1ccc(NS(=O)(=O)c2c(C(=O)N3CCCCCC3)c(C)n(C)c2C)c(Cl)c1	human cells	–	–	0.412 µM, 60 h	–	viability	94.7%
CN[C@@H]1[C@H](O)[C@H](NC)[C@H]2O[C@]3(O)[C@H](O[C@@H]2[C@H]1O)O[C@H](C)C[C@H]3NC(=O)Cc1ccc(Cl)cn1	–	–	mouse plasma	–	–	fraction unbound	0.858
CS(C)(=O)=Nc1ccc(-c2ccc(-c3nc4cc(O[C@@H]5CO[C@H]6[C@@H]5OC[C@H]6O)[nH]c4cc3F)cc2)cc1	Calcium/calmodulin-dependent protein kinase type II subunit delta (CAMK2D, Homo sapiens, UniProt Q13557)	enzyme activity, inhibitor	–	10 µM	–	inhibition	5%
COc1cc2c(cc1NC(=O)c1cncn1C)C[C@H]1[C@H]3CCCC[C@@]23CCN1C	–	–	C57BL/6 mouse, plasma	oral, 50 µg/g, 60 min	–	plasma concentration	8550 ng/mL
CNC(=O)C[C@H](Cc1ccc(F)cc1)NC(=O)[C@@H](Cc1ccc(Cl)cc1Cl)NC(=O)[C@H](N)Cc1ccccc1[N+](=O)[O-]	Huh-7-ACE2	CellTiter-Glo	–	0.0977 µM, 48 h, unit not given	baseline: DMSO	viability	0.9 and 0.944 and 0.927
CC(C)[C@@H]1NC(=O)CNC(=O)[C@H](CC(N)=O)NC(=O)[C@H](CCCNC(=N)N)NC(=O)[C@H](Cc2ccc(O)cc2)NC(=O)[C@H](C(C)C)NC(=O)[C@@H](NC(=O)[C@@H](NC(=O)[C@H](CC(N)=O)NC(=O)[C@H](Cc2c[nH]c3ccccc23)NC(=O)[C@H](C)NC(=O)[C@H](Cc2ccccc2)NC(=O)CNC(=O)[C@H](CCCCN)NC(=O)[C@H](Cc2ccccc2)NC(=O)[C@H](Cc2ccccc2)NC(=O)[C@H](CCCCN)NC(=O)OCC2c3ccccc3-c3ccccc32)C(C)C)CSSC[C@@H](C(=O)N[C@@H](Cc2c[nH]cn2)C(=O)N[C@@H](CCCNC(=N)N)C(=O)N[C@@H](CCCNC(=N)N)C(=O)N[C@@H](C)C(=O)N[C@@H](CC(N)=O)C(N)=O)NC(=O)[C@H](C(C)C)NC(=O)[C@H](CCCNC(=N)N)NC1=O	–	–	ICR mouse, blood	intramammary, 5 mg/kg, day 5, 3 d dosing	–	albumin	35.4 ± 1.21 g/L
CCOc1ccc(CN2CC[C@H]2C(=O)NC)cc1-c1cccc(C(=O)NC[C@@H]2COC(C)(C)O2)c1	Huh-7-ACE2	CellTiter-Glo	–	1.562 µM, 48 h, unit not given	baseline: DMSO	viability	0.921 and 0.933 and 0.937
COc1ccccc1-c1n[nH]c2nc(N[C@H]3CC[C@H](NS(=O)(=O)CC(C)C)CC3)ncc12	–	bead binding, competition bead pull-down, measured: LINJ.36.6960	Leishmania donovani extract	10 µM	baseline: vehicle	relative abundance	1.07
Cc1nc2cccc(OCC(C)(C)C(=O)NC(C)C)c2c(N)c1C(=O)[O-].[Na+]	Salmonella typhimurium	Ames plate incorporation	TA1535	0.13 mg/plate, added: with rat liver S9	–	revertant colonies	12 ± 2 colonies/plate
COc1ccccc1-c1n[nH]c2nc(NC3CCN(C(=O)Cc4ccc(F)cc4F)CC3)ncc12	–	bead binding, competition bead pull-down, measured: LMJF.35.0370	Leishmania donovani extract	10 µM	baseline: vehicle	relative abundance	0.95
NC[C@]1(CC(=O)O)CC[C@H]([18F])CC1	–	PET, arterial plasma	rhesus monkey, plasma parent	intravenous, baseline	–	slow-phase half-life	147 min
CNC(=O)C[C@H](Cc1ccc(F)cc1)NC(=O)[C@@H](Cc1ccc(Cl)cc1Cl)NC(=O)[C@H](N)Cc1ccccc1C#N	Huh-7-ACE2	CellTiter-Glo	–	0.000381 µM, 48 h, unit not given	baseline: DMSO	viability	0.977 and 0.926 and 0.937
CC(=O)NCCCC[C@@H]1NC(=O)[C@H](Cc2c[nH]c3c(C)cccc23)NC(=O)[C@H]([C@@H](C)O)NC(=O)[C@H](CC(N)=O)NC(=O)[C@@H](NC(C)=O)C(C)(C)SSC(C)(C)[C@@H](C(=O)N[C@@H](Cc2ccc(OCCN)cc2)C(=O)N[C@@H](Cc2ccc3ccccc3c2)C(=O)NC2(C(=O)N[C@@H](CCC(=O)O)C(=O)N[C@@H](CC(N)=O)C(=O)N[C@@H](Cc3cccnc3)C(=O)N(C)CC(N)=O)CCOCC2)NC1=O	ATP-dependent translocase ABCB1 (ABCB1, Homo sapiens, UniProt P08183)	transport, inhibitor	LLC-PK1 expressing MDR1	600 µM, 90 min, added: [3H]digoxin	–	efflux ratio	16.5
O=C1NC(=O)c2c1c1cc(F)c[n+]3c1c1c2c2cc(O)ccc2[n]1[Ru-4]312([N]=C=S)[S+]3CC[S+]1CC[S+]2CC3 (stereo not shown)	Serine/threonine-protein kinase NLK (NLK, Homo sapiens, UniProt Q9UBE8)	enzyme activity	–	100 nM, human enzyme, added: 10 µM ATP	baseline: untreated	remaining activity	85%
CC[C@H](C)[C@H](NC(=O)[C@H](CO)NC(=O)[C@H](Cc1ccc(O)cc1)NC(=O)[C@H](Cc1ccc(O)cc1)NC(=O)[C@H](CC(N)=O)NC(=O)CNC(=O)[C@H](CO)NC(=O)[C@H](Cc1ccc(O)cc1)NC(=O)[C@H](CO)NC(=O)[C@H](CO)NC(=O)[C@H](CC(N)=O)NC(=O)COCCOCCNC(=O)CN1CCN(CC(=O)O)CCN(CC(=O)O)CCN(CC(=O)O)CC1)C(=O)N[C@@H](CC(C)C)C(N)=O [copper-64 labelled]	–	dynamic PET	mouse, tamoxifen-induced PDAC, blood	intravenous, 0.1 µg/mouse, 17.5 min	–	tumour uptake	4.92 %ID/mL
Cc1cc(C(=O)Nc2nc3cccc(C)c3n2[C@H]2CCCCN(C(=O)/C=C/CN(C)C)C2)ccn1	Trypanosoma brucei brucei	–	2T1 wild type	15 x EC50	–	survival	-0.092% and -0.015% and -0.019% and -0.106%

A few entries again:
SMILES	tested on	assay	test system	conditions	how to read	endpoint	value
N=C(N)NCCC[C@H](NC(=O)[C@H](CCCNC(=N)N)NC(=O)[C@H](CCCNC(=N)N)NC(=O)[C@H](CCC(N)=O)NC(=O)[C@H](CCCNC(=N)N)NC(=O)[C@H](CCCNC(=N)N)NC(=O)[C@H](CCCCN)NC(=O)[C@H](CCCCN)NC(=O)[C@H](CCCNC(=N)N)NC(=O)CNC(=O)[C@H](Cc1ccc(O)cc1)NC(=O)[C@H](Cc1ccccc1)NC(=O)[C@H](Cc1ccccc1)NC(=O)[C@H](Cc1ccccc1)NC(=O)Cc1ccc2ccccc2c1)C(=O)O	RAW264.7	flow cytometry	–	FITC-labelled compound	baseline: control	cellular internalization	decreased
COc1ccc(-n2cc(C(=O)N3C[C@]4(OC(=O)c5ccccc5NC(C)=O)CC[C@H](OC)[C@@]56[C@@H]4C[C@@H]([C@@H]35)[C@@]3(O)C[C@H](OC)[C@H]4C[C@@H]6[C@]3(O)[C@H]4OC)nn2)cc1	–	–	rat Sprague-Dawley, plasma	intravenous, 2 mg/kg	–	AUC(0-inf)	59.1 ng·h/mL
